{"data": "Measurements from different studies", "target": "Serine/threonine-protein kinase LATS2 (LATS2, Homo sapiens, UniProt Q9NRM7)", "One construct used (Q9NRM7 1-1088)": "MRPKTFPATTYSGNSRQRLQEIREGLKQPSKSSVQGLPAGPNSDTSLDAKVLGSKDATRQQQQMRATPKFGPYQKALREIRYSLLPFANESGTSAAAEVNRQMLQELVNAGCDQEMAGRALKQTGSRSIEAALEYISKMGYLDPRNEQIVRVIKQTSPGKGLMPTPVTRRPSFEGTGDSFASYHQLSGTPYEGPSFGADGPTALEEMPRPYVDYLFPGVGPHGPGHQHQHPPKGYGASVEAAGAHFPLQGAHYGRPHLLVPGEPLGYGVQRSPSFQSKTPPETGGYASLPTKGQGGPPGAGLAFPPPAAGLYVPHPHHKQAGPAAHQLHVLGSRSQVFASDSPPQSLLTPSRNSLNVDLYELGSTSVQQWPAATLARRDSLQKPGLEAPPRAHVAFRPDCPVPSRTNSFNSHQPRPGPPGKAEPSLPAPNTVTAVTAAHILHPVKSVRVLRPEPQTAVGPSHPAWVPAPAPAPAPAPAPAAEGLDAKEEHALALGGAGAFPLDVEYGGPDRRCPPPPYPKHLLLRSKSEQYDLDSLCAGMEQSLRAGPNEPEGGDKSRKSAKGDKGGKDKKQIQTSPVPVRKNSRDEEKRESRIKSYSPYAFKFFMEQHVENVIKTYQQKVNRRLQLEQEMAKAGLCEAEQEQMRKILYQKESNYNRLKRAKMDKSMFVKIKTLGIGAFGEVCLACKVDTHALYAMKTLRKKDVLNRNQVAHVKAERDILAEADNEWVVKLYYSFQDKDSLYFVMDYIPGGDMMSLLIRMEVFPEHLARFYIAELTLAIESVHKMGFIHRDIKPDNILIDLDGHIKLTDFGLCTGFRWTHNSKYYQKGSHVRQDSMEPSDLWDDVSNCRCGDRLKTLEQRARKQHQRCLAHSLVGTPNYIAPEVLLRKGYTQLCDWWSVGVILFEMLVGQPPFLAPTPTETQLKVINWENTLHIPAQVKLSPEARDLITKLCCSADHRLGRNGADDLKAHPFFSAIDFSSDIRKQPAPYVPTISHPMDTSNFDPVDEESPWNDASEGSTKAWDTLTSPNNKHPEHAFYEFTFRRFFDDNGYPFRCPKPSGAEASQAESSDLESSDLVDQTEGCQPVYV"}
{"Structure (SMILES)": "C1=C/COCc2cc(ccc2OCCN2CCCC2)Nc2nccc(n2)-c2cccc(c2)COC/1", "setting": "concentration not given", "endpoint": "percent of control", "result": "88%"}
{"Structure (SMILES)": "O=C(NC1CCC1)c1ccc2nc(-c3cccc(NS(=O)(=O)NCCN4CCCCC4)c3)cn2c1", "assay": "enzyme activity", "setting": "10 µM", "endpoint": "remaining activity", "result": "100%"}
{"Structure (SMILES)": "C=CC(=O)N1CCC(COCC(=O)N2CCN(c3nc(-c4cnc(N)nc4C(F)F)nc(N4CCOC[C@@H]4C)n3)CC2)CC1", "assay": "KINOMEscan", "setting": "1 µM", "scale": "baseline: DMSO control", "endpoint": "remaining binding", "result": "87%"}
{"Structure (SMILES)": "C[C@@H](c1ccc(-n2cnc3c(N)ncnc32)cc1)N1CCc2nn(C)c(Cc3ccccc3)c2C1=O", "assay": "KINOMEscan", "setting": "0.1 µM", "scale": "baseline: DMSO control", "endpoint": "remaining binding", "result": "100%"}
{"Structure (SMILES)": "Cc1cc(-c2ccnc3[nH]cc(F)c23)cc(F)c1[C@@]1(O)[C@H](C)CN(C2CCS(=O)(=O)CC2)C[C@@H]1C", "assay": "ATP probe binding, KiNativ, measured: Lys2 site", "system": "HEK293T cell lysate", "setting": "0.1 µM", "endpoint": "inhibition", "result": "30.5%"}
{"Structure (SMILES)": "CC[C@@H]1[C@H](F)C(=O)N[C@@H]1COc1nccc2cc(C(N)=O)c(OC)cc12", "assay": "ATP-site probe binding, ActivX profiling", "system": "THP-1 cell lysate", "setting": "0.04 mM, Lys2 site", "endpoint": "inhibition", "result": "-16%"}
{"Structure (SMILES)": "C=CC(=O)N1CCC(C(=O)NCC(=O)N2CCN(c3nc(-c4cnc(N)nc4C(F)F)nc(N4CCOCC4)n3)CC2)CC1", "assay": "KINOMEscan", "setting": "1 µM", "endpoint": "remaining binding", "result": "100%"}
{"Structure (SMILES)": "COc1cc(-c2cncc3c2CN(C)Cc2cc(N4CCNCC4)ccc2-3)cc(OC)c1OC", "assay": "kinase activity", "setting": "1 µM, human enzyme, with: ATP 10 µM", "scale": "baseline: DMSO control", "endpoint": "remaining activity", "result": "109%"}
{"note": "For quick reference, copied from above:"}
{"Structure (SMILES)": "C=CC(=O)N1CCC(COCC(=O)N2CCN(c3nc(-c4cnc(N)nc4C(F)F)nc(N4CCOC[C@@H]4C)n3)CC2)CC1", "assay": "KINOMEscan", "setting": "1 µM", "scale": "baseline: DMSO control", "endpoint": "remaining binding", "result": "87%"}
